Measurements collected from several papers.
Parts stem from different laboratories: compare values within a part only.
Sequence of UniProt P62837 (whole entry, looked up): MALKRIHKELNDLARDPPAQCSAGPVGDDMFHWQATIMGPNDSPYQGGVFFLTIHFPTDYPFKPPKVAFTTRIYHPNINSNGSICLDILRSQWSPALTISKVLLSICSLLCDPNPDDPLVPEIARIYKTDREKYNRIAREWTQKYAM

Sample 1
Target: HLA class I histocompatibility antigen, A alpha chain, allele A*80:01 (Homo sapiens, UniProt P04439)
Read-out: peptide-MHC binding
Form: peptide
Concentration: concentration not given
`QTDNDIWFW`: binding “inactive”.
Under binding, `KKNHWFILK` is recorded as “inactive”.
`IYDFYNAEY` — result for binding: “inactive”.
`RLAKLTEAI`: binding “inactive”.
`IQFDWYPTS` — result for binding: “inactive”.

Sample 2
Target: Protein C-ets-1, full length (ETS1, Homo sapiens, UniProt P14921, residues 1-441)
Method: protein-binding microarray
Form: hairpin DNA
Medium: in vitro
Concentration: not given
Notes: whole hairpin DNA, median over replicate spots
Relative to: not given
Reading: higher = stronger binding
Residues (chain): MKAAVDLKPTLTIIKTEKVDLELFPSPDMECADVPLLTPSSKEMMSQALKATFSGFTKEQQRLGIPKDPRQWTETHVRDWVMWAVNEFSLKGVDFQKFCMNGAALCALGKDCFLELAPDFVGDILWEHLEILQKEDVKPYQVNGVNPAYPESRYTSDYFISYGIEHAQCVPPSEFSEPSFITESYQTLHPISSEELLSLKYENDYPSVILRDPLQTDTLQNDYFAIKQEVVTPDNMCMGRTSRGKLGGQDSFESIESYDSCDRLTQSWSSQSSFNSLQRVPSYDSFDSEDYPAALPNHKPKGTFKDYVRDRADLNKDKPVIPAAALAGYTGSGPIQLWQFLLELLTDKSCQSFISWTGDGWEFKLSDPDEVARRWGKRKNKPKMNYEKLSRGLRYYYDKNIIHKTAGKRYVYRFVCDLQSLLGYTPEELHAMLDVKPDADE
For `GAGGCCAGCCGGAAATTGCCTCCTGGCAATTTCCGGCTGGCCTCACACTC`, the median fluorescence was 8410 a.u.
With `GAGGCCCGCCGGAAGTTGCCTCCTGGCAACTTCCGGCGGGCCTCACACTC` the median fluorescence was 8250 a.u.
`GAGGCCAGCCGGAGGTTGCCTCCTGGCAACCTCCGGCTGGCCTCACACTC (5mC at 31)` gave a median fluorescence of 2420 a.u.
The median fluorescence of `GAGGCCAGCTGGAAGTTGCCTCCTGGCAACTTCCAGCTGGCCTCACACTC` is reported as 771 a.u.
For `GAGGCCAGTCCGAAGTTGCCTCCTGGCAACTTCGGACTGGCCTCACACTC (5mC at 11 33)`, the median fluorescence was 537 a.u.
For `GAGGCCAGCCGCGAGTTGCCTCCTGGCAACTCGCGGCTGGCCTCACACTC`, the median fluorescence was 558 a.u.
`GAGGCCAGCCGGCGGTTGCCTCCTGGCAACCGCCGGCTGGCCTCACACTC` gave a median fluorescence of 577 a.u.
For `GAGGCCAGTCGGATGTTGCCTCCTGGCAACATCCGACTGGCCTCACACTC`, the median fluorescence was 2300 a.u.

Sample 3
Target: Histone acetyltransferase KAT6A, winged helix 2, GST fusion (KAT6A, Homo sapiens, UniProt Q92794, residues 85-181)
Method: protein binding microarray
Form: double-stranded DNA, one strand shown
Medium: in vitro
Concentration: not given
Notes: 8-mer, flanks averaged, mean of 2 arrays, mostly near background
Relative to: not given
Reading: higher = stronger binding
Residues (chain): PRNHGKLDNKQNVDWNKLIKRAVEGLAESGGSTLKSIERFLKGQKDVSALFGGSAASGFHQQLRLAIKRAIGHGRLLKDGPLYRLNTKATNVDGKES
With `AGGCGACT` the E-score was -0.0195.
For `AGGCTCAA`, the E-score was -0.044.
`ATATTTAA` has an E-score of 0.025.
The E-score of `AATATGGC` is reported as -0.114.
For `ACGTTGTC`, the E-score was -0.213.
For `AGTGTCTG`, the E-score was 0.125.
For `GGCTTCAC`, the E-score was -0.116.
With `CGCAGTAG` the E-score was 0.0676.

Single results of other studies
`BRCA1 RING domain (UniProt P38398)` — result for “lacZ reporter activity”: 0 (UBE2D2 UBC core domain (UniProt P62837); yeast two-hybrid; yeast; mostly zero background; relative to: not given, higher = stronger interaction).

For quick reference, copied from above (sample 1):
Under binding, `KKNHWFILK` is recorded as “inactive”.
`IYDFYNAEY` — result for binding: “inactive”.
